# Measured values collected from several papers.
# Protocols differ between the studies behind these lines. Several values in a cell are separate wells, animals, samples, runs or records. ± marks the error that the study gave.
# Cell line: MCF7
Structure (SMILES),assay,conditions,how to read,quantity,value
c1cnc2c(c1)c1nccnc1c1cccnc12,"cell growth or viability, MTT",48 h,,IC50,> 50 µM
CC1CCC2C(C)C(OC(=O)CCC(=O)OC3C(C)OC(n4cc(F)c(=O)[nH]c4=O)C3OC(=O)CCC(=O)OC3OC4OC5(C)CCC6C(C)CCC(C3C)C46OO5)OC3OC4(C)CCC1C32OO4 (stereo not drawn),"cell growth or viability, CCK-8",,,IC50,> 50 µM
O=C(Cc1ccc(Br)cc1)N1CCN(CC(OCc2ccc3ccccc3c2)c2ccc(Cl)cc2Cl)CC1 (stereo not drawn),"cell growth or viability, MTT",24 h,,IC50,18.6 µM
CC1CCC2C(C)C(OC(=O)CCC(=O)N3CCN(CC(=O)Nc4ccc([N+](=O)[O-])c(C(F)(F)F)c4)CC3)OC3OC4(C)CCC1C32OO4 (stereo not drawn),"cell growth or viability, CCK-8",,,IC50,> 50 µM
O=C(N[C@H](Cc1ccccc1)C(=O)N[C@H](Cc1ccccc1)C(=O)N[C@@H](Cc1ccc(OP(=O)(O)O)cc1)C(=O)O)OCC1c2ccccc2-c2ccccc21,"mitochondrial membrane potential, flow cytometry","10 µM, 48 h",,low-TMRM cells,8%
CNC(=S)NCCCC[C@H](NC(=O)CCc1ccccc1)C(=O)N[C@@H](CCCNC(=N)N)C(=O)N[C@@H](CC1CCCCC1)C(=O)N[C@H](CCCCN)C(=O)N[C@@H](CC1CCCCC1)C(=O)N[C@H](CCCNC(=N)N)C(=O)N[C@@H](CC1CCCCC1)C(N)=O,"cell growth or viability, MTT",72 h,,EC50,18.5 µM
CC[C@H](C)[C@H](NC(=O)CNC(=O)[C@H](Cc1ccc(O)cc1)NC(=O)[C@H](CO)NC(=O)[C@H](Cc1ccc(O)cc1)NC(=O)[C@@H](NC(=O)[C@H](CC(=O)O)NC(=O)[C@H](CO)NC(=O)[C@H](CCC(N)=O)NC(=O)[C@H](Cc1ccccc1)NC(=O)[C@H](CO)NC(=O)[C@H](Cc1ccccc1)NC(=O)[C@@H]1CCCN1C(=O)[C@H](CC(N)=O)NC(=O)[C@H](CC(N)=O)NC(=O)[C@H](CC(=O)O)NC(=O)[C@H](CCC(N)=O)NC(=O)[C@@H]1CCCN1C(=O)[C@H](CCCNC(=N)N)NC(=O)[C@H](CCCNC(=N)N)NC(=O)[C@H](CCCNC(=N)N)NC(=O)[C@H](CCC(N)=O)NC(=O)[C@H](CCCNC(=N)N)NC(=O)[C@H](CCCNC(=N)N)NC(=O)[C@H](CCCCN)NC(=O)[C@H](CCCCN)NC(=O)[C@H](CCCNC(=N)N)NC(=O)CN)C(C)C)C(=O)N[C@H](C(=O)N[C@@H](CC(C)C)C(N)=O)C(C)C,"immunoblot densitometry, item: phospho-c-Raf Ser338","20 µM, 48 h, unit not given",reference: 0 µM,phospho-c-Raf level,0.192 and 0.254
CC(C)(C)C(=O)OCOP(=O)(OCOC(=O)C(C)(C)C)C1CCCN(O)C1=O (stereo not drawn),,,,TGI,3.86 µM
CC(C)Cc1ccc(C(C)C(=O)[O-])cc1.CC(C)Cc1ccc(C(C)C(=O)[O-])cc1.O.[Cu+2].c1ccncc1.c1ccncc1 (stereo not drawn),"cell growth, MTT",48 h,,TGI,80 ± 4.9 µM
